Assay results of several laboratories.
Parts stem from different laboratories: compare values within a part only.

Series 1
Target: Histone acetyltransferase KAT6A, winged helix 2, GST fusion (KAT6A, Homo sapiens, UniProt Q92794, residues 85-181)
Method: protein binding microarray
Form: double-stranded DNA, one strand shown
Sample: in vitro
Concentration: not given
Setting: 8-mer, flanks averaged, mean of 2 arrays, mostly near background
Baseline: not given
Direction: higher = stronger binding
Construct (chain): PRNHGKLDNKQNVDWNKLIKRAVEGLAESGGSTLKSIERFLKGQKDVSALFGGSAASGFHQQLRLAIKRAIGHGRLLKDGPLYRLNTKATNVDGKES
Strand | E-score
AATCCAGT | -0.0653
CAATGTCG | -0.0939
CCATCAAC | -0.0323
CCCAGAAA | 0.0466
ATATACAC | -0.196
AACCATAT | -0.0851
ACTCATCT | -0.136
ACGAAATA | 0.136
AGGAAGTG | -0.0522
GGTGAGAA | 0.0181
CACTTCCG | -0.13
ACACCCCA | -0.137
ACAGCGTC | 0.057
ATAGAGTG | -0.106
ATTCCTGG | -0.0959
AAATTAAA | 0.185
AAGAAACT | 0.0953
GAAGTTCA | -0.0436
TCGGCGAA | 0.133
CAGGCCTA | 0.0637
TAGTCTGA | -0.0315
AAGCGGAG | 0.123
CTTACTAC | -0.209
ACCGAGTG | -0.145
CCCGGCCA | 0.175

Series 2
Target: RING finger protein unkempt homolog, zinc fingers 1-6, GST-SBP tag (UNK, Homo sapiens, UniProt Q9C0B0, residues 30-357)
Chain of UniProt Q9C0B0 (30-357, looked up): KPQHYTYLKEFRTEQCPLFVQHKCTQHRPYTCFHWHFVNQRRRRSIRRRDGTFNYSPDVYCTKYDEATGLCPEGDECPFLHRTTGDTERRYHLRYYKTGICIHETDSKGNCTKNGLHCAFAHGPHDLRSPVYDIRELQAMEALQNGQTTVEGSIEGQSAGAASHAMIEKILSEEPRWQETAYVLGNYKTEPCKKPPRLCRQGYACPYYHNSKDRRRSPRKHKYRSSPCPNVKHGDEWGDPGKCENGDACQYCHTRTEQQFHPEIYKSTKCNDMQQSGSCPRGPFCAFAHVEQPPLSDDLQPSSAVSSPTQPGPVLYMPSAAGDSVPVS
Method: RNA Bind-n-Seq
Form: RNA
Sample: in vitro
Concentration: not given
Setting: RNA with constant flanks, human and mouse sites, ends assumed
Baseline: input RNA pool
Direction: higher = stronger binding
Shared flanks, not repeated: GGGAGUUCUACAGUCCGACGAUC … CAACAGAGGAUUGAGCAUCA
Strand | bound/input enrichment
UGUGCUGAAUUACACCAAAAUGUAAAUGUGAAAAACAUAAUCAUUGCUUUAAUUGACAGAUUAGCUUUAUUUGCUCAUCGUGAAGAUGGACCCGGAAUUCCAGCUGAGAUUAAACUUUUU | 0.327 ratio
UUUAUCCGAACACUUCUGGCUGUUACACGACCAUUUAUCAGUUCAAAGUUCAGUCAGAAGAUCAGAUACGUCUUUAACUUGGCCGAGCUGGCAGAGCUUGUUCCCAUGGAGUAUGUCGGC | 0.159 ratio
UGGGCGGUUUGUGCUUUCAUCACAUUUGUUAACAGGUCAAAAUGCAGAUCUUCGUGAAGACCCUGACCGGCAAGACCAUCACCCUAGAGGUGGAGCCCAGUGACACCAUCGAGAACGUGA | 0.102 ratio
ACUGGGGCAGAAGACAAAGAUAAAAAGAAGAAAGAAAAAGAAAAUAAAUCUGAAAAGCAGAACAAGCCUCAGAAACAAAAUGAUGGCCAAGGGAAAGACUCUUCCAAAAGCCAAGGCAGU | 0.695 ratio
AAGCCUGGCCCCGAUGGUCUCCGUGGAAUCCCUGGUCCUGUGGGUGAGCAAGGCCUCCCAGGAUCCCCAGGCCCCGAUGGUCCACCCGGCCCCAUGGGUCCUCCAGGACUCCCUGGCCUC | 0.111 ratio
UAACGCCGCCGCCCCGGAGCCGCCUUGGAGGUCCCCCUCCCCACUAAGUGCCUCUUUGCAUAGCACCAGUCCCCACCCGCACGCUCUCUGGACCACUACAGCUGGACGGGCAAUGGCGGG | 0.32 ratio
CGCAACCUGUCACAUAAUAGGCGUGUGCCAAAAAUCGGGCCUUACCCAGAUUAUUCCUCUUCCUCAUAUAUUGAAGACUCUAUCCAUCAUACUGACAGCAUUGUGAAGAAUAUUUCCUCU | 0.33 ratio
UGAUAACUGUUCCAACGGCCCUUCUGGCUCCAGUCAUGGUGCAAGAGUAGAUUAAGGAUGUUGUCUCUAGGACUGUGUACAGAGACUCUGGAGCGGCCCCUCCGUGUAAGCCCCCUGAGA | 0.276 ratio
GCAAAGCAAAGAAUCCAGGAAAGAAUUGCCAGAGAAGAAAUUAAAAAGAAGAUAUUAUAUGAAGGUACCCACCUCGAUCCUGAAAGAAAACACAACGGCAGCAGCAGCAAUUGAACAAUC | 0.741 ratio
UUCAAGAAGAAAAGAAUCGUCACGACCCCGCAGACUGUCCUCCGGAUAAACAGCAUUGAGAUUGCUCCGUGUUUGUUGUGAUUACCGAGUUAAUACUUACAAAAGGAUAAAAAUAAACUC | 0.186 ratio
GAUGUAGAAAUAAUCUUUAAUGAACGUGGCUCUAAGGGAUUCGGGUUCGUAACUUUCGAGAAUAGUGCUGAUGCAGACAGGGCCAGGGAGAAAUUACACGGCACCGUGGUAGAGGGCCGU | 1.46 ratio

Series 3
Target: RNA binding protein fox-1 homolog 2, RRM domain, GST-SBP tag (RBFOX2, Homo sapiens, UniProt O43251-10, residues 100-194)
Method: RNA Bind-n-Seq
Form: RNA
Sample: in vitro
Concentration: 365 nM
Setting: natural RNA segment, single round, ends assumed
Baseline: no-protein control
Direction: higher = stronger binding
Shared flanks, not repeated: GGGAGUUCUACAGUCCGACGAUC … UGGAAUUCUCGGGUGCCAA
Target sequence (chain): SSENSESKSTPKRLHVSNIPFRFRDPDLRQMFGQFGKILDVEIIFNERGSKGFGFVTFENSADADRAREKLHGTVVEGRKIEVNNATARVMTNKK
Strand | RBNS enrichment (R)
CACACAAAAAAAGGGCAGUGUUUGAAGAUUGUUGAUUUUUUUCUGGGGAUAAUCUAUAUUAUAUUGACUUCCUAUUACUUAUUAUAAACCUGUGUUUGUAUUGGAGAUGU | 0.794
UCCCAGGAAGCAGGGAGAGUUGGGGAAGGCAAGAUUGGAAAGACAGGAAGACCAAGGCCUCGGCAGAACUCUCUGUCUUCUCUCCACUUCUGGUCCCCUGUGGUGAUGUG | 0.459
AUCAGAAAGAAACUAAGAAAAAGGAUAAAAAUAUCCAAAGGAGUUACAUUUUGAGGAAAAAGAACAAAAAAGAAGGUUAUUGCAAAACUGAUGAUGCCCAUGAUACAAUU | 0.642
UGUCAAUAAGCUUGCAUUAAGCCACCUGCUUUGUAAGUGGAUUGAUUAAUAAAUAACUUAUAUUUCUUUGUCUUUGUGUUUCAUAAUUAGUGUUUAUAAAAUGGUUUACA | 1.5
UACCUGUGUGGCUAUCCUCAUCUGCCUGCCCUCUCAUCCCUCGGCUAGAAUGAUGUACUCUACUUUCCCAAUAAGGUAGAAAUUUGGAAUCCAACGGAAUAUAAUCAGUU | 0.503
AUUUUGGAAGUAUAUUCAAUACCAAUGCUGUAUGAGUGGGCUGAAUCCAGUUCAUUGUUUUUUUUUUGGUAAGAAGUGAGACUACAGUUCCAGCUACCUACAUGUCUUUU | 0.744
CUGCUGGGGCCUGGCUGGGCCCAAAGCUCCAAGCCUCACUGCCUUCCUGGGGUCCUAAUUAACUCGGCCUACUCAAUGAGAACGUAACAUGCUUAUUGAAUGUAUAGCCG | 0.382
UAGAGAUGUGUGCAGACUUGCUUAUUGUGGUUAGUGUGUAUCAGGAACACACACACAGGUGUUCUGACCAGCUCAGGCUUGCCACAGUGAGCAACUCUGUGGCUAGCAAA | 0.666
UGUUGAUCGGUGCUUUCUGUAAAUACAUCUUAUCGCUUGGGUUGAGAGGGGCCUUAAGAAGGACAGUUCAUUGUAGGAAAGCAAUUCUGUACAUGAGUUAAGCAUACUUG | 0.445
AGCCAACCCCAGCCUCCUGCCAGGAUCACCUCGGCGGUCACACUCCAGCCAAAUAGUGUUCUCGGGGUGGUGGCUGGGCAGCGCCUAUGUUUCUCUGGAGAUUCCUGCAA | 0.21
GAGGGUCUUUGUAGGAGUUGCUCUUGCUGUGUAAAGCACUAUUGUCUUGGGGUUGAGCCCUAGGGCAGUUCUUGGUAGGUUCUGCUGGGCAGAACAUAUGGGUUAAAUCU | 0.871
GGCUCCGGAGGGGACCCAGCUCCUCUGAGCCAUACCAACCAUCGUCCAGCCCUCCUGCACGGAUGCUGUUGCCGGCAGAGCACAGCCCACUGGGAUCACAGCAUUUCGGG | 0.435

Series 4
Target: Prothrombin, mature alpha-thrombin (F2, Homo sapiens, UniProt P00734)
Method: aptamer microarray, sandwich
Form: DNA with 2'F-ANA
Sample: in vitro
Concentration: 200 nM
Setting: whole 15-mer aptamer, many near background
With: Cy3 exosite-II aptamer, 400 nM
Direction: higher = stronger binding
Strand: GGTTGGTGTGGTTGG
Modification | mean fluorescence intensity [a.u.]
2'F-ANA at 1 2 3 4 7 8 11 13 15 | 192
2'F-ANA at 2 3 5 6 7 8 11 | 126
2'F-ANA at 3 4 7 9 10 11 12 13 15 | 271
2'F-ANA at 1 2 3 5 6 7 10 12 13 14 | 62.9
2'F-ANA at 1 4 6 7 9 10 11 14 15 | 49.3
2'F-ANA at 3 6 7 8 9 10 14 15 | 353
2'F-ANA at 1 2 3 4 6 10 13 14 | 49.8
2'F-ANA at 1 2 5 7 11 14 15 | 44.7
2'F-ANA at 1 3 4 5 7 13 15 | 111
2'F-ANA at 1 2 3 5 8 14 | 127
2'F-ANA at 1 2 3 5 7 8 10 12 13 14 | 69.3
2'F-ANA at 2 4 6 9 10 11 12 13 15 | 91.4
2'F-ANA at 3 5 6 8 9 11 13 | 86.3
2'F-ANA at 1 6 11 12 14 15 | 64.3
2'F-ANA at 1 2 3 7 8 11 12 | 424
2'F-ANA at 2 6 10 14 | 86.3
2'F-ANA at 4 5 6 7 8 10 11 13 14 15 | 56.7
2'F-ANA at 2 8 9 11 12 13 14 | 219
2'F-ANA at 8 9 10 11 13 | 121
2'F-ANA at 1 3 4 7 8 9 13 14 15 | 65.6
2'F-ANA at 1 2 3 5 6 9 12 13 15 | 126
2'F-ANA at 1 4 5 8 9 12 15 | 115

Series 5
Target: Sal-like protein 4, full length isoform B (SALL4, Homo sapiens, UniProt Q9UJQ4-2, residues 1-616)
Method: universal PBM
Form: double-stranded DNA, one strand shown
Sample: in vitro
Concentration: not given
Setting: 8-mer, flanks averaged, mean of replicates
Direction: higher = stronger binding
Strand | E-score
CTCGTGGC | -0.246
GAACGTGA | -0.0617
GCATTAAA | 0.313
GGTAGCCA | -0.188
ATCATCAG | 0.147
CAACGAAC | -0.0599
CCGGCGAA | -0.225
CACGGTCA | -0.133
CAGCCCGC | -0.384
ATTCAATA | 0.387
CGACATAA | 0.2
GGCACACC | -0.328
CCCCAGTC | -0.193
CCCTAAAA | 0.0562
AATAACGC | 0.157
AATCACAT | 0.178
AGTCCGAC | -0.16
AGAAGACC | -0.159

Repeated from above (series 4):
Modification | mean fluorescence intensity [a.u.]
2'F-ANA at 1 2 5 7 11 14 15 | 44.7
2'F-ANA at 1 3 4 5 7 13 15 | 111
2'F-ANA at 1 2 3 5 8 14 | 127
2'F-ANA at 1 2 3 5 7 8 10 12 13 14 | 69.3
2'F-ANA at 2 4 6 9 10 11 12 13 15 | 91.4
2'F-ANA at 3 5 6 8 9 11 13 | 86.3
2'F-ANA at 1 6 11 12 14 15 | 64.3
2'F-ANA at 1 2 3 7 8 11 12 | 424
2'F-ANA at 2 6 10 14 | 86.3
2'F-ANA at 4 5 6 7 8 10 11 13 14 15 | 56.7
2'F-ANA at 2 8 9 11 12 13 14 | 219
2'F-ANA at 8 9 10 11 13 | 121
2'F-ANA at 1 3 4 7 8 9 13 14 15 | 65.6
2'F-ANA at 1 2 3 5 6 9 12 13 15 | 126
